Assay results collected from several papers.
A part holds a random share of what one study measured.

Set 1
Target: Centromere-binding protein 1, full length, His-tagged (CBF1, Saccharomyces cerevisiae, UniProt P17106, residues 1-351)
UniProt P17106, sequence (whole entry, looked up): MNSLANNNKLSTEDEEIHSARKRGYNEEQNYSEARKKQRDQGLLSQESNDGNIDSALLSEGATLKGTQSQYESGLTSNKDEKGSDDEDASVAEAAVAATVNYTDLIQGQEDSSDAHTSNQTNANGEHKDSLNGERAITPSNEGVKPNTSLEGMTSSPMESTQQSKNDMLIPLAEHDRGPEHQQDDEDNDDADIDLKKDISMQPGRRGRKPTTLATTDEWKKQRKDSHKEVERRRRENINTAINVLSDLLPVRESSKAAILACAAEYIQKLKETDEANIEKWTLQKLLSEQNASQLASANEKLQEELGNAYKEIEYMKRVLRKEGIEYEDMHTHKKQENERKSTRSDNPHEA
Method: competition protein-binding microarray
Form: double-stranded DNA, one strand shown
Matrix: in vitro
Concentration: 2 µM
Notes: whole 60-bp probe, lowest competitor level
Together with: Pho4 competitor, 0.05 µM
Reading: higher = stronger binding
Shared flanks, not repeated: … GTCTTGATTCGCTTGACGCTGCTG
The fluorescence intensity of `TACCCGGATACTTATCATGTTATGGTCTTTAATCAA` is reported as 88.5 a.u.
For `AGGATTTTCAACCATCATGTGACAGTCGAAGAACGC`, the fluorescence intensity was 1190 a.u.
`CTAACGAAGGTTTGCGTTGTGGGTGACAAGCCAAGT` has a fluorescence intensity of 75.7 a.u.
The fluorescence intensity of `CGTTTGTAATACCATCACGTGCAAAATCTTCTCTTC` is reported as 6210 a.u.
The fluorescence intensity of `CCTCTGAGAGCGAGTCACGGCCCGCTGAAGGGAAAG` is reported as 56.9 a.u.
The fluorescence intensity of `CCTGTCTCCTCTCAACACGTTGCTCCTGTCAATAGT` is reported as 104 a.u.
The fluorescence intensity of `ATTCACTAAGAGGCAAACATGACAACGCGGGCTCCA` is reported as 64.1 a.u.
The fluorescence intensity of `AACAAGGGCATTTTTCACGTGCCGATGAGCAGCAAG` is reported as 870 a.u.
For `AAAGCGGTAATTTGTATAGTGGGTGCAGATATCTAT`, the fluorescence intensity was 96.6 a.u.
`ACCGAGGACCAGGCCCATGTGGCAGAGTAGCTGCTG` gave a fluorescence intensity of 53 a.u.
With `GTCTTGTCTCATTGTCACCCCACTTTCCCCACTTCA` the fluorescence intensity was 82.3 a.u.
`AAAGCGGTAATTTTTCACGTGCGTTCACATATCTAT` has a fluorescence intensity of 1040 a.u.
The fluorescence intensity of `CGGAGAGGACCTACCCACGTGCCAGAATTGTTTCAA` is reported as 1410 a.u.
`CTTTCCCGATCTTGTGACGTGGGTGTAGCACATTTG` has a fluorescence intensity of 210 a.u.
The fluorescence intensity of `GAAGAGGACGAAGACGACGTGGTGAAAGAAGACGAA` is reported as 66.1 a.u.
`TAGTCCTACAAAACCGGCGTGGGTACATAGATTTTC` has a fluorescence intensity of 51.9 a.u.
With `TGCGCAACAACTTGGCGCGTGGGTGTATGTCTAGAA` the fluorescence intensity was 80.3 a.u.
For `CCAAATAAAAGAATGTTCGTGCAAAAAGTTGCAAAA`, the fluorescence intensity was 76.5 a.u.
`GATCGGCTACGCAACTACGTGCATCGCTCCGTTGGA` gave a fluorescence intensity of 58.8 a.u.
`CCATCTTGTACTCACCACATGCCTATTAGTCACTAG` gave a fluorescence intensity of 114 a.u.

Set 2
Target: RNA binding protein fox-1 homolog 2, RRM domain, GST-SBP tag (RBFOX2, Homo sapiens, UniProt O43251-10, residues 100-194)
Method: RNA Bind-n-Seq
Form: RNA
Matrix: in vitro
Concentration: 365 nM
Notes: natural RNA segment, single round, ends assumed
Reference: no-protein control
Reading: higher = stronger binding
Shared flanks, not repeated: GGGAGUUCUACAGUCCGACGAUC … UGGAAUUCUCGGGUGCCAA
Residues (chain): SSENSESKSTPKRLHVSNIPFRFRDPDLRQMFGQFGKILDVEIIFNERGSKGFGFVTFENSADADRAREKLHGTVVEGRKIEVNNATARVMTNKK
For `UCUAGAACCGACGACCACACACCGCCCCCGUGUUCCACCCAGCAAGCUCCGCUGGGAGACCCAGCGCCGGCACCCACUCUGCCGCAGAGGGAGGAAGGGGACUGCAGUAA`, “RBNS enrichment (R)” read 0.245.
Under “RBNS enrichment (R)”, `CACCCACUGUUCCUGAGGACUCCUGCUGGGAAGUCCCAAGGGAUAGUUCUAGCCCUUCUGCCUGUGUAGACAGAAGCUAAACCACCAGUCUCUCUCGGAGGAAGCUGAGA` is recorded as 0.261.
For `CCCUCACCUCCUGCCAAGGGGAGAGAUCUAUUUCUACUACACGCUGUCUCUCCCAGUACAUCCCCGGAUUGGUGUGGGUAGAUAGGCCAACGUAUGGUGAUCUCCCCUAG`, “RBNS enrichment (R)” read 0.315.
`UAAAAACAGCACUGUUCCCCAAGGGGGUGUUCUGGGCUUCUCUCUCUUCUCACUUUACCUGUUUUUAUUUCUGCUUGUAUCUAAGUGUGAAGGCAGGGCAGGUACACUGA`: “RBNS enrichment (R)” 0.639.
Under “RBNS enrichment (R)”, `GCAUUUUCUUUAUUAUUUUCAUUUCCCUUAUAUUAUCCAUCAUUCCUUAAGGACAAUUAUUCUUAAUAAUGCUUAUAGAAAAUGUUCUCUAAUUAAACAUGCCAAAAGGA` is recorded as 0.578.
For `UUGGAGAUGGAAUUUCAGGAAGGGAUAUAUUAUUUAAGAUUAUUGUUUAAUUACAAGAAUUUUAAAAGAAUGUAUGAAUUCUGUUUUUUAAUAUAGAAAAUAAUUAUGGA`, “RBNS enrichment (R)” read 0.682.
`CCUGAGAGGUUCUUGAAGAUGUUUAUUUAUAUUGUCCUUUUUUACUGGAAGACGUACGCAUACUCCAUCGAUGUUGUAUUUGCAGUGGCUGAGGAAUUCUUGUACGCAGU`: “RBNS enrichment (R)” 2.05.
For `CACUGUUUCUUAAUUUUAUUGUUGUAUUCAUAUAUGUAGGAUUUGAAAUAUUGUGAUGCCCACCACGUCUGUAUUUCUUCUCUACUCCCCAGUCUUAACGUUUAUCUUUG`, “RBNS enrichment (R)” read 0.589.
`CAGUUAGCACUGUCCUCCUGGACCAUGCUGAGGGUUGGGCCUCUCCCUCAGAGUCCUUUCUCACUGUAGUUCUGUGUGCCUGUUCCCUUCAUGCCUGAGUCAGGAAUACA`: “RBNS enrichment (R)” 0.232.
`GUUGAUAAUACCGAAGAAGUGAUGCAAAAACAAAAAAUCACAUUACUGAUCAUUGAUAGUAUUACAAAUAAAUGUCUCUUCCUUUCUCUUCCUCCCUUCCUCCCCCUGCC` — result for “RBNS enrichment (R)”: 0.568.
`AACUGUUUAACUUGAACCCAGGAUUGUUUAAAGCUUUAUUUAUUUAUAGCUUCUUCUUAAAAAAAAGUGUUGAAGAAAUUUUUUGGUUAUUCAUACAAAAAAAUGAGUUG` — result for “RBNS enrichment (R)”: 0.963.
Under “RBNS enrichment (R)”, `AGGAAGUUUUAAUCCACUUCAGGAUGCAUAUUAGCAAGAUACUUUCAUAUACAGGAUAGCCUAAUUUUAUUUGUUUAAAUAUGCUUAAUAUGCCCAAGAUUGCAAAUGCA` is recorded as 2.56.

Set 3
Target: Ras GTPase-activating protein-binding protein 1, RRM domain (G3BP1, Homo sapiens, UniProt Q13283)
UniProt Q13283, sequence (whole entry, looked up): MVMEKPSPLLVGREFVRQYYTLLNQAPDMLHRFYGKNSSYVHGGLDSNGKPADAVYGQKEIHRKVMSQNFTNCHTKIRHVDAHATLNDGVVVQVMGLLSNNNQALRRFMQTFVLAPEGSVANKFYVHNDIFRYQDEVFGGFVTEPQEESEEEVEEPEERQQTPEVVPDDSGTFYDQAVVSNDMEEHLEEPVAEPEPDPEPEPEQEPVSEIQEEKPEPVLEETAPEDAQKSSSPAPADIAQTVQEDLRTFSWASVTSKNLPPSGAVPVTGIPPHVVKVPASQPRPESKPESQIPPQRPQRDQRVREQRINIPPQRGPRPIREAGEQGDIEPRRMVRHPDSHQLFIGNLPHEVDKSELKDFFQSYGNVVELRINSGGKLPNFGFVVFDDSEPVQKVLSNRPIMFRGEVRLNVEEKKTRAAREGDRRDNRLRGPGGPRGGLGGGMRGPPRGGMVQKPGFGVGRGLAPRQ
Method: RNA Bind-n-Seq
Form: RNA
Matrix: in vitro
Concentration: 1 µM
Notes: whole 134-nt RNA, ends assumed
Together with: 150 mM KCl
Reference: input library
Reading: higher = stronger binding
Shared flanks, not repeated: GGGAGUUCUACAGUCCGACGAUC … UGGAAUUCUCGGGUGUCAAGG
The log2 enrichment of `CUGUGCUACACAUCGUAUGUACCGAAUCGGGGCCCCCCGGGCCCCCCGGGGCCCCCCGGGGAAAGUAUUAUGUUACGCCGUUCGGAUCUG` is reported as -0.762.
`UAACUUUAGAGGAGGAUCUGAUGGAUAUGGCAGUGGACGUGGAUUAGGGGAUGGCUAUAAUGGGUAUGGAGGAGGACCUGGAGGUGGCAA` has a log2 enrichment of -0.396.
`UUGGGUUCAAUAUACGGAGAGUGCCCUGUGCCAAAGCCACGAGUUGAUCGUCCAAGAAAAGUUCCUGUGAUACAAGAGGAGAGGGCAAUG` has a log2 enrichment of -0.291.
For `UAACUUUAGAGGAGGAUCUGAUGGAUAUGGCAGUGGACGUGGAUUUGGGGAUGGCUAUAAUGAGUAUGGAGGAGGACCUGGAGGUGGCAA`, the log2 enrichment was -0.416.
For `CCUGUGCUACACAUCGUAUGUACCGAAUCGGGGCCCCCGGGGCCCCCGGGGCCCCCGGGGAAAGUAUUAUGUUACGCCGUUCGGAUCUGC`, the log2 enrichment was -0.981.
`UGUGCUACACAUCGUAUGUACCGAAUCGGGGUUUUUUUGGGGUUUUUUUGGGGAAAAAGGGGAAAGUAUUAUGUUACGCCGUUCGGAUCU` gave a log2 enrichment of 0.707.
`UCCUGUGCUACACAUCGUAUGUACCGAAUCGGGGAAAGGGGUUUUUGGGGAAAAAGGGGAAAGUAUUAUGUUACGCCGUUCGGAUCUGCA` has a log2 enrichment of 0.925.
The log2 enrichment of `CUGUGCUACACAUCGUAUGUACCGAAUCGGGGAAAAAAGGGGAAAAAAGGGGAAAAAAGGGGAAAGUAUUAUGUUACGCCGUUCGGAUCU` is reported as 0.65.
The log2 enrichment of `UGGCCCUGGUGGCAUGCGGGGAGGAAGAGGUGGCCUCAUGGAUCGUGGUGGCCCCGGUGGAAUGUUCAGAGGUGGCCGUGGUGGAGACAG` is reported as 0.0909.
The log2 enrichment of `CCUGUGCUACACAUCGUAUGUACCGAAUCGGGGCCCCCCCGGCCCCCCCGGCCCCCCCGGAAAGUAUUAUGUUACGCCGUUCGGAUCUGC` is reported as -0.695.
`GGAAGGGGGCUUGCGCCACGGCAGUGAAUCUUCAUGGAUCUUCAUGCAGCCAUACAAACCCUGGUUCCAACAGAAUGGUGAAUUUUCGAC` has a log2 enrichment of -0.171.
With `UUGUGGCUGAGAGACAGUUUGCAAAGGAACAACAUACAGAUGGGACACUAAAGGAAGUUGGAGAAGAUUAUCAAAUCGCAAUCCCAGAUU` the log2 enrichment was 0.0487.
`CACAGACAACACGCACCCACACAGACACAGAGGGAAGGGGUUGGGAUGGGGACAGGGUGCACAGCAGGGCGGGGUAGGACCCCCGCCCCU` has a log2 enrichment of -0.438.
`CCUGUGCUACACAUCGUAUGUACCGAAUCGGAAAAAAGGGGAAAAAAGGGGAAAAAAGGGAAAGUAUUAUGUUACGCCGUUCGGAUCUGC` gave a log2 enrichment of -0.0748.

Set 4
Target: Histone acetyltransferase KAT6A, both winged helices, GST fusion (KAT6A, Homo sapiens, UniProt Q92794, residues 1-181)
Method: protein binding microarray
Form: double-stranded DNA, one strand shown
Matrix: in vitro
Concentration: not given
Notes: 8-mer, flanks averaged, mean of 2 arrays, mostly near background
Reference: not given
Reading: higher = stronger binding
Construct (chain): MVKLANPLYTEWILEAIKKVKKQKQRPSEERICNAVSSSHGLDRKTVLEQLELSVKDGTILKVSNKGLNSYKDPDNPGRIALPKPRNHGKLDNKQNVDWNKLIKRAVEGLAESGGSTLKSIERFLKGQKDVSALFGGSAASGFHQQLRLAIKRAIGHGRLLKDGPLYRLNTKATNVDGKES
The E-score of `CTCGACGA` is reported as -0.15.
With `CGAAAAAC` the E-score was 0.00473.
`ACAATGGC` has an E-score of -0.0273.
For `ACGATCGT`, the E-score was -0.00207.
`GGTACGAC` has an E-score of 0.00848.
`AGCCCCAT` has an E-score of -0.166.
`CGAACATC` gave an E-score of 0.0493.
The E-score of `AAAGACGT` is reported as -0.154.
`GTCTTAGA` gave an E-score of -0.0757.
`AATTAACA` gave an E-score of -0.134.
`CGTTTATA` gave an E-score of 0.109.
For `GACCAGGA`, the E-score was -0.146.
`ATGTATCG` gave an E-score of -0.0358.
For `AACGGATG`, the E-score was 0.128.
For `CTAGGCGA`, the E-score was -0.0221.
The E-score of `AGTCTTAT` is reported as -0.05.
The E-score of `AAGGCGGC` is reported as 0.167.
`GAGGATGC` gave an E-score of -0.127.
`ACGTCCCT` gave an E-score of -0.177.
`ATGTTCCC` gave an E-score of 0.0278.
